Measurements from different studies.
Each line is one published result; not all experiments were run side by side. Numbers after ± are the reported error.
Target: ATP-dependent translocase ABCB1 (ABCB1, Homo sapiens, UniProt P08183)
Sequence of UniProt P08183 (whole entry, looked up): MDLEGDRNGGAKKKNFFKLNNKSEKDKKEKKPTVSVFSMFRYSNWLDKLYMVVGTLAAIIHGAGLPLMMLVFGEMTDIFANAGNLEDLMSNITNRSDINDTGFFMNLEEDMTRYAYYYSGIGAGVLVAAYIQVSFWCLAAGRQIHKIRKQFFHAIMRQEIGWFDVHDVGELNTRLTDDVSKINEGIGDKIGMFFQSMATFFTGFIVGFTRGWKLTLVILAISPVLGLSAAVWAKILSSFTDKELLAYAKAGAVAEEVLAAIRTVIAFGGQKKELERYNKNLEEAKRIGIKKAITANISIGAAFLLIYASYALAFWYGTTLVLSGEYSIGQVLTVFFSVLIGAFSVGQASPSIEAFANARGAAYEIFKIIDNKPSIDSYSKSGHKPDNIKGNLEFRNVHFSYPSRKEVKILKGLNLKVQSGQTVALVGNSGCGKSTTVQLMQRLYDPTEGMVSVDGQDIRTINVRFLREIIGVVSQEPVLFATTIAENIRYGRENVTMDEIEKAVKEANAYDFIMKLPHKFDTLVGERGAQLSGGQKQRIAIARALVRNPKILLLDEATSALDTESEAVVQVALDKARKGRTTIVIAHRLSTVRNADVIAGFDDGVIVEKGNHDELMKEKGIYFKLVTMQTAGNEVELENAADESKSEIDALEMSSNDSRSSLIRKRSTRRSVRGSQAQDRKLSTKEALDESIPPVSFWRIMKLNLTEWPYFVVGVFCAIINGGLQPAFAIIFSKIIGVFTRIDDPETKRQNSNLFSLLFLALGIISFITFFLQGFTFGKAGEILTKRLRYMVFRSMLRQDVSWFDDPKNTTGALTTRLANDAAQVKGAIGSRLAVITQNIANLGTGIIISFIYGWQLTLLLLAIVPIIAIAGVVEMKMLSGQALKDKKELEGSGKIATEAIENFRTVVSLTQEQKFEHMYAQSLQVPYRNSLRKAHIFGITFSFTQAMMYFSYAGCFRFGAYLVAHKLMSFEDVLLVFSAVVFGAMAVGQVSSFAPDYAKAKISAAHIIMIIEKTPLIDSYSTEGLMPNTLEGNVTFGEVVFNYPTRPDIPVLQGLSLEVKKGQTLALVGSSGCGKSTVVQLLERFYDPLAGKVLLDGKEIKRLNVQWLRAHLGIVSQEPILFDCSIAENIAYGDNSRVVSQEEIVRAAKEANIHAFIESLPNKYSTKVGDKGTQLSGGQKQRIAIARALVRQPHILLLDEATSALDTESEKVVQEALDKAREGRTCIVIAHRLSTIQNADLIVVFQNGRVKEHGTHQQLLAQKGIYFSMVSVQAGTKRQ

C/C(N)=N/C(=N\S(=O)(=O)c1ccc(C(F)(F)F)cc1)N1C[C@H](c2ccccc2)C(c2ccc(Cl)cc2)=N1 — efflux ratio (MDCK-MDR1 monolayers; 5 µM, 120 min, pH 7.4, with: valspodar 1 µM): 0.49
N[C@H]1[C@H](O[C@H]2[C@H](O)[C@@H](N)[C@H](O[C@H]3[C@H](O)[C@@H](N)[C@H](O[C@H]4[C@H](O)[C@@H](N)C(O)O[C@@H]4CO)O[C@@H]3CO)O[C@@H]2CO)O[C@H](CO)[C@@H](O)[C@@H]1O (stereo partly shown) — Rmax (binding, SPR; SMALP from MCF-7/ADR): 236 RU
OCCn1nc(-c2ccccc2)c2c(Cl)c(-c3ccccc3)nnc21 — effective efflux ratio (MDCK-MDR1 and wild-type MDCK; 10 µM, 1 h, pH 7.4): 1.7
Cc1cc(C(=O)N[C@@H](CC(=O)NC(C)(C)C)C(=O)NCCNC(=O)c2cc(-c3ccccc3)ccn2)no1 — efflux ratio (ABCB1-expressing cell monolayer; 10 µM; relative to: B-A over A-B): 58
CNc1nc(N)nc2c1ncn2[C@@H]1O[C@H](CO)[C@@H](O)[C@@]1(C)F — efflux ratio (bidirectional transport; LLC-PK1, human MDR1, transfected with; 10 µM, with: zosuquidar 1 µM): 1.24 ± 0.15
Cc1cc(C(=O)N[C@@H](CC(=O)NC(C)(C)C)C(=O)NCCNC(=O)c2cccc(-n3cccn3)c2)no1 — apparent permeability (ABCB1-expressing cell monolayer; 10 µM, apical to basolateral): 0.1 ×10⁻⁶ cm/s
C[C@@]1(F)[C@H](O)[C@@H](CO)O[C@H]1n1cnc2c(=O)[nH]c(N)nc21 — Papp A to B (bidirectional transport; LLC-PK1, human MDR1, transfected with; 10 µM): 14.7 ± 1.1 ×10⁻⁶ cm/s
Cc1cc(C(=O)N[C@@H](CC(=O)NC(C)(C)C)C(=O)NCCNC(=O)c2cccc(-c3cc[nH]n3)c2)no1 — efflux ratio (ABCB1-expressing cell monolayer; 10 µM; relative to: B-A over A-B): 8.7
CNc1nc(N)nc2c1ncn2[C@@H]1O[C@H](CO[P@](=O)(O)N[C@@H](C)C(=O)O)[C@@H](O)[C@@]1(C)F — efflux ratio (bidirectional transport; LLC-PK1, human MDR1, transfected with; 10 µM, with: zosuquidar 1 µM): 1.12 ± 0.24
C=CC(=O)N1CC2C(=O)N(CCN(C)C)c3c(c4cc(Cl)c(-c5c(O)cccc5F)nc4n(-c4c(C)ccnc4C(C)C)c3=O)N2CC1C (stereo not shown) — Papp B-A (MDCK-MDR1): 7.2 ×10⁻⁶ cm/s

A few entries again:
Cc1cc(C(=O)N[C@@H](CC(=O)NC(C)(C)C)C(=O)NCCNC(=O)c2cccc(-n3cccn3)c2)no1 — apparent permeability (ABCB1-expressing cell monolayer; 10 µM, apical to basolateral): 0.1 ×10⁻⁶ cm/s
